Measurements gathered from unrelated publications.
Numbered parts are unrelated; each lists some results of a single study.

Set 1 — host: mouse; medium: microsomes or S9; tested at: 2 µM; time: 0.5 h
Structure (SMILES) | remaining compound
CCc1ccc(S(=O)(=O)NCc2cccc(CS(C)(=O)=O)c2)s1 | 0.622%
CN(C1CCNCC1)S(=O)(=O)c1ccc(Cl)s1 | 56.9%
O=C(NCC1CCN(c2ccc(F)cc2)C1)C1CC(O)CN1 (stereo not shown) | > 100%
CC(C)(C)c1cc(-c2c(O)c3ccc(Cl)cc3[nH]c2=O)cc(C(C)(C)C)c1O | 94.1%
Cc1nccc(CNc2c(C#N)cnc3c(F)ccc(Cl)c23)n1 | 41.4%
CSC1CC2CCC(C1)N2C(=O)c1cc(C2CC2)on1 (stereo not shown) | 0.117%
COCc1cc(C)nc2sc(C3=NC(C)(C)Cc4cc(OC)c(OC)cc43)c(N)c12 | 0.0525%

Set 2 — read-out: enzyme activity; mode: inhibitor; tested at: 0.5 µM; relative to: control
Target: Insulin receptor (INSR, Homo sapiens, UniProt P06213)
Sequence of UniProt P06213 (whole entry, looked up): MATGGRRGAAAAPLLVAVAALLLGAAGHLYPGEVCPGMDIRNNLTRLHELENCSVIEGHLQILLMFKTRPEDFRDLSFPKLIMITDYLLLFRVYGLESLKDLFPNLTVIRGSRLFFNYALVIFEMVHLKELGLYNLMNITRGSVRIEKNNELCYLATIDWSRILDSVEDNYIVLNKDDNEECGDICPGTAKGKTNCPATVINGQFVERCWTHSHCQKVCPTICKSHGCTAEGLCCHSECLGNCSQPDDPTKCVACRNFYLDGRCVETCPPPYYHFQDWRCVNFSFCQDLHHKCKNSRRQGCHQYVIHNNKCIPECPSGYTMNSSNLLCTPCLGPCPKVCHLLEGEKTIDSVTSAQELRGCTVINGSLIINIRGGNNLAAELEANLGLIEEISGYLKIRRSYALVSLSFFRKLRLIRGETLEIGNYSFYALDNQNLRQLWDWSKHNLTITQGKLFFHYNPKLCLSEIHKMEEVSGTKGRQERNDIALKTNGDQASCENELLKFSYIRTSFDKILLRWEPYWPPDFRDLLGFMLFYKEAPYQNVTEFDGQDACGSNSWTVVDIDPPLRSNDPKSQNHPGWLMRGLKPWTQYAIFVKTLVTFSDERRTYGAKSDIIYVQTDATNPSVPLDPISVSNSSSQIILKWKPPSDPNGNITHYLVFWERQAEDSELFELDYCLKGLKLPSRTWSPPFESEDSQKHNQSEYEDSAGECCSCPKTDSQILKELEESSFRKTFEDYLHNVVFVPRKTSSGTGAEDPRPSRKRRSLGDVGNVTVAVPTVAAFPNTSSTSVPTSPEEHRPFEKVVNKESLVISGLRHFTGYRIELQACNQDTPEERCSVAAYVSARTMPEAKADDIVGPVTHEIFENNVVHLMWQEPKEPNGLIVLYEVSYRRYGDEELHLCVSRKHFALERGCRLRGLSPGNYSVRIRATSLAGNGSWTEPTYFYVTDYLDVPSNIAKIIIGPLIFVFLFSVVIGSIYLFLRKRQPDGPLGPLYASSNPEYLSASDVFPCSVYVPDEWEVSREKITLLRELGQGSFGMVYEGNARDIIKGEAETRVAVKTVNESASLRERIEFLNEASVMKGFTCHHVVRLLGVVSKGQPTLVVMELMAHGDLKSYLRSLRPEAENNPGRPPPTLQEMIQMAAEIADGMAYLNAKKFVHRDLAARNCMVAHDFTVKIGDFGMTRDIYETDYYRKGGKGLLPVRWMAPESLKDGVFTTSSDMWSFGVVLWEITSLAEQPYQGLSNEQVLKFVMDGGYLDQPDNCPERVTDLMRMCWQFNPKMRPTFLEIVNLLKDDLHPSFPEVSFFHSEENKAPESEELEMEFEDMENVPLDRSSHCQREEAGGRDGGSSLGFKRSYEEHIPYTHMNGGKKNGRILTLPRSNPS
SMILES | remaining activity [%]
O=C1NC(=O)C(c2c[nH]c3ccccc23)=C1c1c[nH]c2ccccc12 | 99.6
N#CC(=C(N)Sc1ccc(N)cc1)c1ccccc1C(F)(F)F | 101
Cc1cc(Nc2nc(-c3ccccc3)nc3ccccc23)n[nH]1 | 31.6
Fc1ccc(-c2nc3n(c2-c2ccncc2)CCS3)cc1 | 91.2
Cc1cncc2cccc(S(=O)(=O)N3CCCN(C(=O)CN)C[C@@H]3C)c12 | 88.9
CC(=O)c1ccc(N2CCOCC2)cc1O | 94
CSc1nc(-c2ccnc(N[C@@H](C)c3ccccc3)c2)c(-c2ccc(F)cc2)[nH]1 (racemic) | 100
CCc1[nH]c(-c2ccc(OC)cc2)nc1-c1ccncc1 | 85
O=S(=O)(NCCNC/C=C/c1ccc(Br)cc1)c1cccc2cnccc12 | 94.3
CC#CC(=O)Nc1cc2c(Nc3ccc(F)c(Cl)c3)ncnc2cn1 | 99.6
COc1ccc(S(=O)(=O)N(CCO)c2ccccc2CN(C)CC=Cc2ccc(Cl)cc2)cc1 | 103
CC(C)(C)n1nc(Cc2cccc3ccccc23)c2c(N)ncnc21 | 102

Set 3 — organism: Plasmodium berghei; mode: inhibitor; cells: Huh-7; strain: GFP-expressing sporozoites, liver stage; tested at: 10 µM; time: 24 h; relative to: untreated control
SMILES | infection rate
CC[C@H]1OC(=O)[C@H](C)[C@@H](O[C@H]2C[C@@](C)(OC)[C@@H](O)[C@H](C)O2)[C@H](C)[C@@H](O[C@@H]2O[C@H](C)C[C@H](N(C)C)[C@H]2O)[C@](C)(O)C[C@@H](C)C(=O)[C@H](C)[C@@H](O)[C@]1(C)O | 94.2%
CC1(C)OC(=O)NC1=O | 99.1%
CCC(=O)O[C@]1(C(=O)CCl)[C@@H](C)C[C@H]2[C@@H]3CCC4=CC(=O)C=C[C@]4(C)[C@@]3(F)[C@@H](O)C[C@@]21C | 75.2%
Nc1[nH]cnc2ncnc1-2 | 107%
CC1=C(C(=O)O)N2C(=O)[C@@H](NC(=O)[C@H](N)c3ccc(O)cc3)[C@H]2SC1 | 101%
COc1ccc(C2C(=O)c3ccccc3C2=O)cc1 | 84.5%
COc1ccc([C@@H]2Sc3ccccc3N(CCN(C)C)C(=O)[C@@H]2OC(C)=O)cc1 | 75.6%

Mixed results — cell line: normal-adjacent organoid sample D; method: CellTiter-Glo; tested at: 1 µM; notes: replicate mean; relative to: DMSO
Structure (SMILES) | viability [%]
CN(C)[C@H]1CCN(c2cc(-c3ccccc3)nc3ccnn23)C1 | 116
CNC(=O)c1cc(C(=O)N[C@H]2[C@@H]3COC[C@@H]32)cc2c1O[C@H](CF)[C@H]2c1ccccc1 | 96.8
